Assay results pooled from the literature.
Lines come from different studies, so protocols differ.

COc1cc(Nc2ncc3c(n2)-c2ccc(Cl)cc2C(c2c(F)cccc2OC)=NC3)ccc1C(=O)O
patients with adverse event (refers to: increased TSH, grade 1; cancer patients, phase 1/2; oral, dose not given, with: pembrolizumab): 13%

CCOc1c([C@H](C)n2nc(C)c3c(N)ncnc32)cc(Cl)c(F)c1[C@@H]1CNC(=O)C1
patients with HR above 100 bpm (ECG; previously treated B-cell malignancy patients; oral, 15 mg once daily, baseline below thresholds): 0%

COc1ccc([C@@H](O)c2cc(-c3ncnc4cc(N5CCOCC5)ccc34)c(F)cc2Cl)nn1
patients with TEAE (refers to: Asthenia; locally advanced rectal cancer patients; dose not given, all dose groups, with: capecitabine plus radiotherapy): 21%

Cc1cc(-c2nnc(N)nc2-c2ccc(F)cc2)cc(Cl)n1
patients with immune-mediated AE (refers to: Colitis; IO-naive colorectal cancer patients; oral, dose not given, treatment-related, grade 1): 0%

COc1cc2nccc(Oc3ccc(NC(=O)c4cc5c(n(-c6ccccc6)c4=O)CCCC5=O)nc3)c2cc1OC
patients with serious TEAEs (patients with relapsed/refractory AML; oral, 3 mg once daily): 90%

Cc1cc(NC2CCN(C(=O)OC3CCN(C(=O)/C=C/CN(C)C)C3)CC2)n2ncc(C(C)C)c2n1 (stereo not drawn)
patients with adverse event (Phase I dose escalation CTCAE v4.0, refers to: ALT increased; patients with advanced solid tumours; dose not given, QD dosing grade 3 or higher): 5%

C[C@@H](Nc1cc(F)cc(F)c1)c1cc(C(=O)N(C)C)cc2c(=O)cc(N3CCOCC3)oc12
patients discontinuing for AE (refers to: Syncope; advanced solid tumour patients; oral, dose not given, dose expansion): 0%

CNC(=O)c1ccc(-c2cnc3ncc(Cc4ccc5ncccc5c4)n3n2)cc1F
patients with adverse event (refers to: Anemia, all grades; cancer patients; oral, 600 mg twice daily, expansion cohort, any causality): 8%

O=C(Nc1nc2cccc(-c3ccc(CN4CCS(=O)(=O)CC4)cc3)n2n1)C1CC1
patients with Headache (rheumatoid arthritis patients; oral, 100 mg twice daily, 4 weeks, TEAE regardless of relatedness): 8.3%

Excerpt of the above:
Cc1cc(NC2CCN(C(=O)OC3CCN(C(=O)/C=C/CN(C)C)C3)CC2)n2ncc(C(C)C)c2n1 (stereo not drawn)
patients with adverse event (Phase I dose escalation CTCAE v4.0, refers to: ALT increased; patients with advanced solid tumours; dose not given, QD dosing grade 3 or higher): 5%
